Measurements from different studies.
Each line is one published result; not all experiments were run side by side. “And” joins repeats or separate records; there may be more than shown. Numbers after ± are the reported error.

| SMILES | test | system | setting | scale | measurement | value |
| --- | --- | --- | --- | --- | --- | --- |
| Cc1cccc(NC(=O)CCN2CCN(C/C=C/c3ccccc3)CC2)c1 | locomotor activity in dark | Danio rerio larvae, 7 dpf, well of 10 larvae | 10 µM, minute 5, dark |  | third-quartile larval motion | 1 ± 0.4 pixels/frame |
| O=C(CCO)c1ccc(O)cc1 | ABTS radical |  | 300 µg/mL |  | radical scavenging | 42.2 ± 1.3% |
| CN1CCC[C@]1(C)/C=C/S(=O)(=O)NC(=O)Nc1c2c(cc3c1CCC3)CCC2 |  | human, whole blood ex vivo | 100 mg single dose, 6 h, single ascending dose, added: LPS and ATP |  | IL-18 inhibition | 130% |
| CC[C@H](C)[C@@H](C(=O)N[C@@H](CC(C)C)C(=O)N[C@@H](CO)C(=O)N[C@@H](CO)C(=O)N[C@H](C(=O)N[C@@H](CCC(=O)O)C(=O)N[C@H](C(=O)NCC(=O)N[C@@H](CO)C(=O)N[C@@H](CC(N)=O)C(=O)N[C@H](C(=O)N1C[C@H](O)C[C@H]1C(N)=O)[C@@H](C)O)C(C)C)[C@@H](C)O)N(C)C(=O)[C@H](C)NC(=O)CN(C)C(=O)[C@H](Cc1ccccc1)NC(=O)[C@H](CO)NC(=O)[C@H](CO)NC(=O)[C@H](CCCNC(=N)N)NC(=O)[C@H](CCC(N)=O)NC(=O)[C@H](CC(C)C)NC(=O)[C@H](Cc1ccccc1)NC(=O)[C@H](CCCC(=O)O)NC(=O)[C@H](C)NC(=O)[C@H](CC(C)C)NC(=O)[C@H](CCCNC(=N)N)NC(=O)[C@H](CCC(=O)O)NC(=O)[C@@H](NC(=O)[C@H](C)NC(=O)[C@@H]1CCCCNC(=O)C[C@H](NC(=O)[C@H](CCCNC(=N)N)NC(=O)CC[C@H](NC(=O)CCCCCCCCCCCCCCCCCCC(=O)O)C(=O)O)C(=O)NCC(=O)N[C@@H]([C@@H](C)O)C(=O)N[C@@H](C)C(=O)N[C@@H]([C@@H](C)O)C(=O)N1)[C@@H](C)O |  | diet-induced obese rats | subcutaneous, 3 nmol/kg every other day, day 4 | baseline: day 0 | body weight change | 0.2% |
| COc1cc(C2NCCc3cc(O)c(O)cc32)cc(OC)c1OC (stereo not shown) | DPPH scavenging, absorbance |  | 30 min, dark |  | IC50 | 29.3 µM |
| COC1CN([C@H]2CC[C@H]([C@@]3(C)Oc4c(Cl)cc(C(=O)NCc5c(SC)cc(C)[nH]c5=O)c(C)c4O3)CC2)C1 | RNA-seq, measured: SV2C mouse homolog | mouse, HT-1376 xenograft, whole blood | dose not given | baseline: vehicle | log2 fold change | 0.167 |
| Cc1ccc(NC(=O)CCN2CCCCCC2)cc1C | locomotor activity in dark | Danio rerio larvae, 7 dpf, well of 10 larvae | 10 µM, minute 3, dark |  | third-quartile larval motion | 0.8 ± 0.6 pixels/frame |
| NC[C@@H](C(=O)Nc1ccc(-c2cn[nH]c2)cc1)c1ccccc1 | tonometry | Macaca cyclopis, ocular normotensive | ocular, 0.03%, 56 h |  | IOP | 17.2 mmHg |
| CC(CCC(=O)NCc1ccc(C(=O)NO)cc1)C1CCC2C3C(O)CC4CC(O)CCC4(C)C3CCC12C (stereo not shown) | measured: UDCA | PCK rat (Pkhd1 mutant), portal blood | oral gavage, dose not given, 5 months | baseline: total bile acids | relative abundance | 1.68% |
| Oc1cccc(C2NCCc3cc(O)c(O)cc32)c1 (stereo not shown) | DPPH scavenging, absorbance |  | 30 min, dark |  | IC50 | 22.4 µM |
| CCOC(=O)NN | hydrazine ligation kinetics, absorbance |  | concentration not given, 30 s, added: 2-formylphenylboronic acid |  | normalised absorbance | 0.798 |
| CCOC(=S)NCc1ccc(O[C@@H]2O[C@@H](C)[C@H](O)[C@@H](O)[C@H]2O)cc1 | DPPH radical |  | 300 µg/mL |  | radical scavenging | 6.02 ± 2.72% |
| CC(C)c1ccc(N(C)c2ccc3c(c2)OCC[C@H]3CNc2cnccc2C(=O)O)cc1 | organoid viability | breast carcinoma organoid | patient-derived organoid model |  | IC50 | 13.6 µM |
| Cc1cc(NC(=O)CCN2CCCCC2)ccc1Br | locomotor activity in dark | Danio rerio larvae, 7 dpf, well of 10 larvae | 10 µM, minute 5, dark |  | third-quartile larval motion | 1.8 ± 0.7 pixels/frame |
| CC(=O)[O-].O.O.[O-]c1ccc(Br)cc1C=NCCN1CCOCC1.[Zn+2] | nitric oxide scavenging |  | 200 µM |  | inhibition | 41.8% |
| COc1ccc(C(=O)CCc2cc(C(CCc3ccc(O)cc3OC)c3ccc(O)cc3)c(O)cc2OC)cc1 (racemic) | measured: 12-HEPE | human whole blood | 1 µM, added: A23187 |  | amount | 227 ± 78 pg/mL blood |
| O=C(O)c1c(O)cc(O[C@@H]2O[C@H](CO)[C@@H](O)[C@H](O)[C@H]2O)cc1/C=C/c1ccccc1 | FlexiVent | FVB/N mouse, PPE-induced emphysema | oral gavage, 40 mg/kg, 5 weeks | baseline: vehicle | static lung compliance | decreased |
| OO |  | pancreatic islet cells, mouse | 125 µM, 24 h |  | dead cells | 95.4% |
| N[C@@H](CNC(=O)N[C@@H](CS)C(=O)NCC(=O)O)C(=O)O | Y-maze | mouse C57BL/6, Aβ1–42 i.c.v. model | intranasal, 7.2 mg/mouse (200 mg/kg), started 3 days before Aβ |  | spontaneous alternation | 64.8 ± 1.3% |
| CCOC(=O)C1CCN(CCC(=O)Nc2ccccc2F)CC1 | locomotor activity in dark | Danio rerio larvae, 7 dpf, well of 10 larvae | 10 µM, minute 7, dark |  | third-quartile larval motion | 0 pixels/frame |
| Cc1cccc(C)c1CNc1cc(C(=O)N2CCC2)cn2c(C)c(C)nc12 | gastric acid secretion | dog Heidenhain pouch | oral, 5 mg/kg, 24 h after dosing, added: histamine |  | inhibition | 80.7% |
| Cc1ccc(S(=O)(=O)NN)cc1 | hydrazine ligation kinetics, absorbance |  | concentration not given, 15 s, added: 2-formylphenylboronic acid |  | normalised absorbance | 0.71 |
| O=C(NCC1OC2CCC=CCCC2O1)c1ccc(F)nc1 (stereo not shown) | IEDDA cycloaddition, substrate, stopped-flow spectrophotometry | water/methanol 45:55 | 1.5 mM, 298 K, added: methyltetrazine-NHS 0.05 mM |  | observed rate constant kobs | 15.82 ± 0.0335 s⁻¹ |
| COc1ccc(CCc2cc(OC)c(O)c(OC)c2)cc1OC | Oil Red O | 3T3-L1, mouse | 5 µM, day 8 |  | lipid content | decreased |
| CCCCCCCCCCCCCCCC(=O)OCC(CSC[C@H](N)C(=O)N[C@@H](CO)C(=O)N[C@@H](CCCCN)C(=O)N[C@@H](CCCCN)C(=O)N[C@@H](CCCCN)C(=O)N[C@@H](CCCCN)C(=O)NCCCCCC(=O)N[C@@H](CCCCN)C(=O)N[C@@H](CC(C)C)C(=O)N[C@H](C(=O)N[C@@H](Cc1ccccc1)C(=O)N[C@@H](Cc1ccccc1)C(=O)N[C@@H](Cc1ccc2ccccc2c1)C(=O)O)C(C)C)OC(=O)CCCCCCCCCCCCCCC (stereo partly shown) | OC antibody staining | APP/PS1 transgenic mouse, cortex | intracortical injection, dose not given, 5 d | baseline: injected over adjacent area | Aβ plaque area ratio | 0.524 and 0.635 and 0.593 and 0.675 and 0.483 and 0.693 and 0.286 and 0.429 |

Excerpt of the above:
| SMILES | test | system | setting | scale | measurement | value |
| --- | --- | --- | --- | --- | --- | --- |
| COC1CN([C@H]2CC[C@H]([C@@]3(C)Oc4c(Cl)cc(C(=O)NCc5c(SC)cc(C)[nH]c5=O)c(C)c4O3)CC2)C1 | RNA-seq, measured: SV2C mouse homolog | mouse, HT-1376 xenograft, whole blood | dose not given | baseline: vehicle | log2 fold change | 0.167 |
| Cc1ccc(NC(=O)CCN2CCCCCC2)cc1C | locomotor activity in dark | Danio rerio larvae, 7 dpf, well of 10 larvae | 10 µM, minute 3, dark |  | third-quartile larval motion | 0.8 ± 0.6 pixels/frame |
| NC[C@@H](C(=O)Nc1ccc(-c2cn[nH]c2)cc1)c1ccccc1 | tonometry | Macaca cyclopis, ocular normotensive | ocular, 0.03%, 56 h |  | IOP | 17.2 mmHg |
